Results pooled from the literature.
Numbers after ± are the reported error.
B1: enzyme (Bacillus pumilus, UniProt A8FFI9); chain EARSIAWSVDEFFKNREGTFVIQEVKEKSPWVYNKKRAKERFAPQSTFKVANALIGLQTGAVRDEYDIKYWDGVKREIDNWNRDHTLGSGMRDSVVWYYQAMARDIGEERMNHWVKAIHYGNKDISGGIDQFWLSSTLRISPIEQVRFLKQLYEETLPFDLKNMRTVKRMMVQEEEKHATLYGKTGSGSDIGWYVGFIKHEHKTYILATNIKGTGIEAKDITYRILKKYHLMEASV
B2: UGT1A9 (Homo sapiens, UniProt O60656); chain GKLLVVPMDGSHWFTMRSVVEKLILRGHEVVVVMPEVSWQLGRSLNCTVKTYSTSYTLEDLDREFKAFAHAQWKAQVRSIYSLLMGSYNDIFDLFFSNCRSLFKDKKLVEYLKESSFDAVFLDPFDNCGLIVAKYFSLPSVVFARGILCHYLEEGAQCPAPLSYVPRILLGFSDAMTFKERVRNHIMHLEEHLLCHRFFKNALEIASEILQTPVTEYDLYSHTSIWLLRTDFVLDYPKPVMPNMIFIGGINCHQGKPLPMEFEAYINASGEHGIVVFSLGSMVSEIPEKKAMAIADALGKIPQTVLWRYTGTRPSNLANNTILVKWLPQNDLLGHPMTRAFITHAGSHGVYESICNGVPMVMMPLFGDQMDNAKRMETKGAGVTLNVLEMTSEDLENALKAVINDKSYKENIMRLSSLHKDRPVEPLDLAVFWVEFVMRHKGAPHLRPAAHDLTWYQYHSLDVIGFLLAVVLTVAFITFKCCAYGYRKCLGKKGRVKKAHKSKTH

CC(C)[C@H](NC(=O)[C@@H]1CCCN1C(=O)[C@H](CCCNC(=N)N)NC(=O)[C@H](CS)NC(=O)[C@H](Cc1c[nH]c2ccccc12)NC(=O)[C@H](CCCNC(=N)N)NC(=O)[C@@H](Cc1ccccc1)NC(=O)[C@H](Cc1c[nH]cn1)NC(=O)[C@H](CCC(=O)O)NC(=O)[C@H](CS)NC(=O)[C@H](CS)NC(=O)[C@H](CCCCN)NC(=O)[C@@H]1CC(=O)N[C@@H](CCCNC(=N)N)C(=O)N[C@@H](C)C(=O)N[C@@H](CC(=O)O)C(=O)N[C@H](Cc2ccc(O)cc2)C(=O)N1)C(N)=O [technetium-99m labelled]
tissue uptake (C57 mice, stomach; intravenous, 0.037 MBq, 0.5 h): 2.5 ± 0.16 %ID/g

B1 (enzyme)
kcat (Cc1onc(-c2ccccc2)c1C(=O)N[C@@H]1C(=O)N2[C@@H]1SC(C)(C)[C@@H]2C(=O)O; steady-state kinetics; pH 7): 19 ± 1 s⁻¹

COc1cccc2c1C(=O)c1c(O)c3c(c(O)c1C2=O)C[C@@](O)(C(=O)CO)C[C@@H]3O[C@H]1C[C@H](NC(=O)[C@@H]2CCCN2C(=O)CN)[C@H](O)[C@H](C)O1
AUC (mouse, E0771 tumour-bearing, liver; intravenous, 92 µmol/kg PhAc-ALGP-Dox): 72.2 µM·h

B2 (UGT1A9)
Vmax (COc1cccc(-c2oc3ccccc3c(=O)c2O)c1; steady-state kinetics; pH 7.4, 37 °C): 0.0029 µmol/min/mg

insulin human
half-life (Chymotrypsinogen A (Bos taurus, UniProt P00766); proteolytic degradation, RP-HPLC; 15 µM, pH 7.4, 37 °C): 8.4 min

rnpA F107W (Bacillus subtilis)
pKa (NMR, refers to: His22; 25 °C, Na2SO4 20 mM, numbering of the source): 6.03

Insulin human
concentration (ELISA; rat, ventral cortex; intranasal, 20 µg per nostril, 360 min): 0 pg/mg tissue

recombinant interleukin-13
fibrillar amyloid beta degradation (human monocyte-derived macrophages; 10 ng/mL, 120 h; relative to: untreated): no effect

Some of these lines once more:
insulin human
half-life (Chymotrypsinogen A (Bos taurus, UniProt P00766); proteolytic degradation, RP-HPLC; 15 µM, pH 7.4, 37 °C): 8.4 min
